Assay results pooled from the literature.
A part holds a random share of what one study measured. Substitutions count along the parent as printed.

Block 1 — technique: RNA Bind-n-Seq; form: RNA; medium: in vitro; concentration: not given; baseline: input RNA pool; reading: higher = stronger binding; measurement: bound/input enrichment
Target: RING finger protein unkempt homolog, zinc fingers 1-6, GST-SBP tag (UNK, Homo sapiens, UniProt Q9C0B0, residues 30-357)
Notes: RNA with constant flanks, human and mouse sites, ends assumed
Residues (chain): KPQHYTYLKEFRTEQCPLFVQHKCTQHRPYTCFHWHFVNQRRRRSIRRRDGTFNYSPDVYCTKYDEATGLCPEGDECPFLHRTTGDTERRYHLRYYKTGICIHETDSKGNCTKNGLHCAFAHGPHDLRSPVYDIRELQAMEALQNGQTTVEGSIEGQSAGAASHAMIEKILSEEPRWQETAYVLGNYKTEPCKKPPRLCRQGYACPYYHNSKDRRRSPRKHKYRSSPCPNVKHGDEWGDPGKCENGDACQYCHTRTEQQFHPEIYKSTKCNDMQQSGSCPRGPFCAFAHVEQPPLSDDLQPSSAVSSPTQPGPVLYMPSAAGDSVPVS
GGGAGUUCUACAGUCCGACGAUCAUCACUAUUGGAUCCAUCUCUUUCCUUCUGGGAGUUGUACUGCUAGUAAUUAAUCAUAAAUAUAGAAACAGUAGUAACACUGCUGACAUCACCAUUUAAUUUUAUAUUCUGAAACCAAAUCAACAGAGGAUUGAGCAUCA: 2.66 ratio
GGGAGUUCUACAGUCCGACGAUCGAAGCAGGAGAGGAAGAGGAAAAGGAAAUAGCGAUUGUUCAUAGUGAUGCAGAGAAAGAACAGGAGGAGGAAGAACAAAAACAGGAAAUGGAGGUUAAGAUGGAGGAGGAAACUGAGGUACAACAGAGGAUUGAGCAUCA: 1.51 ratio
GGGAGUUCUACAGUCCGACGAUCAUGCUGAUCCCCGUGAGCAUGUCUGAACUGGAAAAGGUGGAUGGGCUGCUCACCUGCUGCUCAGUUUUAAUUAACAAGAAAGUAGACUCCUGAGCUGCAGAGUCCCCCCCGGUUGCCGGCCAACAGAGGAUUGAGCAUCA: 0.0872 ratio
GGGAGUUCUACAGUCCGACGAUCGUCUCCUUUUUUGGCCCUAGGCUGGUUAGGAACCUGUACACCUUCACUCUCUCAUCAUUAAAUAGUGGCCUUUUUCAGUAUUUCCUCUCUCCCCUCUAUAAGUUGCUGAAAUCACAAAGCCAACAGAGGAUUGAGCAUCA: 1.38 ratio
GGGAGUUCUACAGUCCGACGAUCCAGAGCAGGGAGGAUAGUGACCCUGAGUACCGGGCCAGCAAGUCCAAGCCACUGACCCUACUAGAAUACAACCUUACUAUGGAUACCGCAAAAUUAUUCAUGUCCUGUCUCCACGCCUGGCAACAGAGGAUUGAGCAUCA: 0.506 ratio
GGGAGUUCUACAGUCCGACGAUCAGCUUGCCCAGUUGACCCGAAAAAUAGGACUUUUUAGAAUUGCAUUGCCACUUCUAAAAUCCUAGCAAUACUUAGAAUAACACAUCAGUGAGAUAAAUUUUACUCAAUUAUUUUACAAACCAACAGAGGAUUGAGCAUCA: 9.24 ratio
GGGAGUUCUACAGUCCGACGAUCUUGGGUGGUAUUGAUGGAGUUGGUGGAUUUUCCUCCAAGUGAUUAAAUGAAAUUUGACGUAUCUUUUCAUCCAAAGUUUUGUACAUCAUGUUUUCUAACGGAAAAAAAUGUUAAUAUGGCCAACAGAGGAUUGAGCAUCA: 0.302 ratio
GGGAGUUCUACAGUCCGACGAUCGUGGCUAUAGAGUCCACACCAAUGAUACUGGAAUCUAGUAUCAUGUCAUCACAUGUUAUGAAAGGAAUUAAUCUAUCCUCUGGUGAUCAAAAUCUUGCUCCAGAGAUUGGCAUGCAGGAGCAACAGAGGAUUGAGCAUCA: 0.155 ratio
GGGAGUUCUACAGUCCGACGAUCCGGCGCUACACUAGAGCAGAGUACGAGUCUGAGGCGGAGGGAGUAAUGGCAGGACAAGCGUUUAGAAAGUUUCUUCCACUCUUUGACCGAGUAUUGGUUGAAAGGAGUGCUGCUGAAACUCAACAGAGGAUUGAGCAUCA: 0.415 ratio
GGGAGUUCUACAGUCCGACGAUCAGCAAUUGCUUUGCAUUUACAGAGAGUUCUCAUGGCUCAGAAGAAUUUCAGAUACAUGUUUUCUCCUGUGAAAUUAAAGAGGCAGUAAGCAGAAUUUUAUAUAGUUUCUGCACUGCAUUCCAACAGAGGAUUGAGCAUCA: 0.0898 ratio
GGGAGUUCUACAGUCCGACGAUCAGUGGCCUCACUGAUGAGACCGCUUUCAGCUGCUGCUCCGAUCCAGACCCUAGCACCAAGGAUUUUCUACUGCAGCAAACGAUGCUAAGAAUUAAGGAUCCUAAGAAGUCCCUGGAUUUUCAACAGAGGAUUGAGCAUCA: 0.126 ratio

Block 2 — target: CCNF, cyclin fold, Cln2 fusion (human); technique: yeast growth competition, sequencing; medium: yeast; notes: strong parent motif; baseline: not given; reading: higher = stronger binding; measurement: normalised enrichment score
Starting sequence: PLK5 docking peptide (human); IFRKVGQRLLTQC
AFRKVGQRLLTQC [I1A]: 1.79
IFRKVGQRLLTAC [Q12A]: 3.11
IFRKVGQRLLAQC [T11A]: 2.86
IFRKAGQRLLTQC [V5A]: 1.41
IFRKVGQRALTQC [L9A]: 1.3
IFRKVGARLLTQC [Q7A]: 2.71
IFAKVGQRLLTQC [R3A]: 2.63

Block 3 — technique: RNA Bind-n-Seq; form: RNA; medium: in vitro; concentration: 365 nM; baseline: no-protein control; reading: higher = stronger binding; measurement: RBNS enrichment (R)
Target: RNA binding protein fox-1 homolog 2, RRM domain, GST-SBP tag (RBFOX2, Homo sapiens, UniProt O43251-10, residues 100-194)
Notes: natural RNA segment, single round, ends assumed
Target sequence (chain): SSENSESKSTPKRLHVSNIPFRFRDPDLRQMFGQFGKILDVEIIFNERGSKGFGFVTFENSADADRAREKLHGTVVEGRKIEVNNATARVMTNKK
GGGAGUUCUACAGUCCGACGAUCUUUGUGUGUCCAGUGAAGGAACAGAACUAGAAGCCCAUUCAGCAACCUGUGAGAUUCUUACACAGGGGUUGGCUUCUCUAUGUUAGCCAGGGGUGCUGUAAGAACUCAGGUGGAAUUCUCGGGUGCCAA: 0.738
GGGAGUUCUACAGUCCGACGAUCUUACACGUUUGUUAGCACUAGUUCUGAAUUUGUGUAGGUCUCAACCUUUCAGGACAUCUGGGUCUAAUACAGAAGAAUUAAUAAACUGGAUGAUUACUACAGCAAAAGCAUGGAAUUCUCGGGUGCCAA: 2.42
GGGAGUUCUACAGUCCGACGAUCCACUGUACCUGCCUGCUGAACAGCCUGCCCCCGUCCAUCCAUGAGCCAGCAUCCGUCCGUCCUCCACUCUCCAGCCUCUCCCCAGCCUCCUGCACUGAGCUGGCCUCACCUGGAAUUCUCGGGUGCCAA: 11
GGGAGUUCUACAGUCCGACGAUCAAAUCACAAACCCAUAGAAAAGUAAGUAGGCUAAGUUGGGGAGGCUCAAACCAUUAAGGGUUAAAAAUACAUCUUAAACAUUGGAAAGCUCUUCUAGCUGAAUCUGAAAUUGGAAUUCUCGGGUGCCAA: 0.487
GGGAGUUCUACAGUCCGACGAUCGAAUUCUAUUUUUGCUGAAUAUGCCAAAGAAUCAAAAGCCAUGGCUAUUAAGACAGAUGUGGAUGUUGUUGAAAUAAAAAAUACCUUAAGGAAGCACAUAUAUAGAGCUCUGGAAUUCUCGGGUGCCAA: 0.643
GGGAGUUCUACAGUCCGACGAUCAAACAUUAAUGCUUAGAAUUCUGAGAUCCAGCACAACUCAGUCUGUGGGAGCUCAGCUCGCUGCCCAGGGAUAGGUAUGACCUAUGUCUGCCUUAGGCUGCUGGGAGAUGUGGAAUUCUCGGGUGCCAA: 0.444
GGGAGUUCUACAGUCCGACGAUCAUUAUAAACAUUUUUCAUUAUUGGAAAGUGUGAAGGGGACCUUCUGCAUACCUGUUUAGAACCAAAACCACCACGACACGGUUUUUAUAGUGUCUGUAUAUUUGUGAUGCUGGAAUUCUCGGGUGCCAA: 0.522
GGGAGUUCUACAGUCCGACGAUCGUGGCGCACGCCUGUGAUCCUAGCCCUUGGGAGGCUGAGGCAGGAGGAUUGCUCUGAGUUCCAGGUCAAGUCUGGGCUACAGAGUGAGACGCUGCCUCAAGAAAAGGGGAUGGAAUUCUCGGGUGCCAA: 0.376
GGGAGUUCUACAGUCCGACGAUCCCAUAGGUCAUCCUCAACAACCCAGAGGGUCCCUGCUCUGACAUCCUAGUCCCCGUGAGCCCUGCAGAGCCCAGUGGAGUACCCUCCCAAUAAAGGCUGUGGCGAGGCUGUGGAAUUCUCGGGUGCCAA: 0.187
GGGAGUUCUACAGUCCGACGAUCGCCUUGCAGACCCUGGUUCCCGCCCUGUGGAUCUCUCAGCACUACUGAUGUGUCCUGGGUUGGCAGGUGCCUGGCAGUCCAGACAUCACAGACCCCAGAACAAGGUGAAAUGGAAUUCUCGGGUGCCAA: 0.97
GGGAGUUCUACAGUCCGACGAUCAUUCAUUAACCCUUUGUAUCUUUGAGUGAAAAUUUUACUCAAAAGUUGCAUCUGGAAGUUCGAAGAAAUUACUUGAAAUAAAAAUAAAGAUUUCUAUAUAGAUAAAACCUUGGAAUUCUCGGGUGCCAA: 0.719
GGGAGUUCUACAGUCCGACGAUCAAUUUUCAGUAGAAUAGUUGAAUGUGUUAAGAUAGGAUUUUAUGUUAGAGAUACCAGAAUGCUGGUAUUCUACUACUUGUGCAAUAUAUAUGUUUUAAAAAACAAAUUUGUGGAAUUCUCGGGUGCCAA: 0.515

Block 4 — technique: RNA Bind-n-Seq; form: RNA; medium: in vitro; concentration: 200 nM; notes: whole 134-nt RNA, ends assumed; together with: 150 mM KCl; baseline: input library; reading: higher = stronger binding; measurement: log2 enrichment
Target: Ras GTPase-activating protein-binding protein 1, full length (G3BP1, Homo sapiens, UniProt Q13283)
Sequence of UniProt Q13283 (whole entry, looked up): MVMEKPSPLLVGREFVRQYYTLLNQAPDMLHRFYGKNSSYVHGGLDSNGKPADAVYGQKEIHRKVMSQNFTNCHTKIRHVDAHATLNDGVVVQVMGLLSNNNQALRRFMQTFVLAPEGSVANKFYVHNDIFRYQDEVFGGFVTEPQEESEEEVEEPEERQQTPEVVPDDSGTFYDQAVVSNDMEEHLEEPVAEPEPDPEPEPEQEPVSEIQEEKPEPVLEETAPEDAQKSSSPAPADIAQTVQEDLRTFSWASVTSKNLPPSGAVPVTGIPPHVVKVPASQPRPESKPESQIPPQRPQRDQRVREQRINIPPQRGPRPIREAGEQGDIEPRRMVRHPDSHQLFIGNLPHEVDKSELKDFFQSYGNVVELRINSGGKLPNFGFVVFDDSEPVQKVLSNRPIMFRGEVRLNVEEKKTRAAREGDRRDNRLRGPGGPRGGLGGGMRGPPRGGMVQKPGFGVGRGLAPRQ
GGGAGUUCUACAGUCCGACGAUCAGUCCUGUGCUACACAUCGUAUGUACCGAAUCGGAAAAAGGUUUUUUUGGAAAAAGGAAAGUAUUAUGUUACGCCGUUCGGAUCUGCACUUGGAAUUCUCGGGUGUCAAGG: -1.83
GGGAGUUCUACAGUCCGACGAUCGUCCUGUGCUACACAUCGUAUGUACCGAAUCGGGGUUUUUGGGGAAAGGGGUUUGGGGAAAGUAUUAUGUUACGCCGUUCGGAUCUGCACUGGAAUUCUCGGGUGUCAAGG: 0.647
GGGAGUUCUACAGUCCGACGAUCUCCUCAAGUCCUGUGCUACACAUCGUAUGUACCGAAUCGGCCGGCCGGCCGGAAAGUAUUAUGUUACGCCGUUCGGAUCUGCACUUCCAGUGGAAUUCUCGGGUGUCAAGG: 1.4
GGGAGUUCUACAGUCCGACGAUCUCAAGUCCUGUGCUACACAUCGUAUGUACCGAAUCGGAAAAAGGUGGAAAAAGGAAAGUAUUAUGUUACGCCGUUCGGAUCUGCACUUCCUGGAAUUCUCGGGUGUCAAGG: -0.851
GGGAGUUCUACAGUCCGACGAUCGCAGGAAGUAAAAACAAAUGGAAAUGCUUCGGAUAGUGCCAGGGGUGGGGGUUGCUAAGGAAAGGGUGGGAUGGGAGUGGGUAAAGAGUUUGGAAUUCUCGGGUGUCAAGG: 1.05
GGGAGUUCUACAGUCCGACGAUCCAAGUCCUGUGCUACACAUCGUAUGUACCGAAUCGGAAAAGGAAAAGGGAAAAGGAAAGUAUUAUGUUACGCCGUUCGGAUCUGCACUUCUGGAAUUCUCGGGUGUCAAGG: -0.888
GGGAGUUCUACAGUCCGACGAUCUUCUCUAAGAGGAACUCCGGCGCGUCAGAGUAACAGAAGCGAGAGCACAGACAGUCUUGGGGGCUUGUCUCCCUCUGAAGUCACAGCCAUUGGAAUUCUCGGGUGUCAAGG: -0.0282
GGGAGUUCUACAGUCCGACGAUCAGUCCUGUGCUACACAUCGUAUGUACCGAAUCGGGUUUUUGGUUUUUGGUUUUUGGGAAAGUAUUAUGUUACGCCGUUCGGAUCUGCACUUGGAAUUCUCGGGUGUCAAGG: -1.36
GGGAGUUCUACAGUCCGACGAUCUUUCAGGGGAGCUCUUUGCUCAGGCCCCGGUGGAUCAGUUUCCUGGCACAGCUGUGGAGAGUGUGACGGAUUCCAGCAGGUACUUCGUGAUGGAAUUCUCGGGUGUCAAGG: -1.49
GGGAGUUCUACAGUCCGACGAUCAAGUCCUGUGCUACACAUCGUAUGUACCGAAUCGGGGUGGGGAGGGGUUUUUGGGGAAAGUAUUAUGUUACGCCGUUCGGAUCUGCACUUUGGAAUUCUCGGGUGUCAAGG: 0.574

A few entries again (block 4):
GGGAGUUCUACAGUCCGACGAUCUCCUCAAGUCCUGUGCUACACAUCGUAUGUACCGAAUCGGCCGGCCGGCCGGAAAGUAUUAUGUUACGCCGUUCGGAUCUGCACUUCCAGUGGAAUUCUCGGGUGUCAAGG: 1.4
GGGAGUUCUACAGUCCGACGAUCUCAAGUCCUGUGCUACACAUCGUAUGUACCGAAUCGGAAAAAGGUGGAAAAAGGAAAGUAUUAUGUUACGCCGUUCGGAUCUGCACUUCCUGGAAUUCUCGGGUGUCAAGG: -0.851
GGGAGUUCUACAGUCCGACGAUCGCAGGAAGUAAAAACAAAUGGAAAUGCUUCGGAUAGUGCCAGGGGUGGGGGUUGCUAAGGAAAGGGUGGGAUGGGAGUGGGUAAAGAGUUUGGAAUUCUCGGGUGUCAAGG: 1.05
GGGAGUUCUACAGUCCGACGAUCCAAGUCCUGUGCUACACAUCGUAUGUACCGAAUCGGAAAAGGAAAAGGGAAAAGGAAAGUAUUAUGUUACGCCGUUCGGAUCUGCACUUCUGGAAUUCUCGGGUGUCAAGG: -0.888
